Measured values from different studies.
Each numbered part is a random draw from the data of one study; scales do not carry over between parts.

Series 1 — technique: universal PBM; form: double-stranded DNA, one strand shown; medium: in vitro; tested at: not given; direction: higher = stronger binding
Target: Sal-like protein 4, full length isoform B (SALL4, Homo sapiens, UniProt Q9UJQ4-2, residues 1-616)
Setting: 8-mer, flanks averaged, mean of replicates
For `GGCTAGAA`, the E-score was -0.0767.
With `AATCCGTA` the E-score was 0.0526.
`ACCAGCTA` gave an E-score of -0.0128.
`AGGATCCT` gave an E-score of -0.102.
`AAGCCATT` gave an E-score of 0.162.
The E-score of `AGATGATA` is reported as 0.242.
`CGGAGAAA` gave an E-score of -0.0845.
`GCTGGCAA` gave an E-score of -0.161.
The E-score of `AGATTTCG` is reported as -0.0193.
The E-score of `CCGTTTAC` is reported as 0.0283.
`AGCCCGCT` has an E-score of -0.159.
With `AGGAGGAT` the E-score was -0.00388.
With `ACCTTAAT` the E-score was 0.203.
For `CTCTGAAA`, the E-score was 0.142.
`ATTTTCCC` gave an E-score of 0.0981.
With `ACCATTCG` the E-score was 0.0722.
For `TAGGCCGA`, the E-score was -0.247.
`CATATTAG` gave an E-score of 0.337.
For `CGAAGGAC`, the E-score was -0.176.
For `CCTGTGCG`, the E-score was -0.216.
The E-score of `ACTTTTCG` is reported as 0.109.
For `GCTAACAA`, the E-score was 0.102.
The E-score of `ACCCAGAG` is reported as -0.0859.
`AGTTGATC` gave an E-score of 0.021.
`GCCTTCGC` gave an E-score of -0.0485.

Series 2 — technique: protein-binding microarray; form: double-stranded DNA, one strand shown; medium: in vitro; tested at: not given; direction: higher = stronger binding
Target: Protein C-ets-1 (ETS1, Homo sapiens, UniProt P14921, residues 1-441, K379A, full length assumed)
Chain of UniProt P14921 (whole entry, unmodified, looked up): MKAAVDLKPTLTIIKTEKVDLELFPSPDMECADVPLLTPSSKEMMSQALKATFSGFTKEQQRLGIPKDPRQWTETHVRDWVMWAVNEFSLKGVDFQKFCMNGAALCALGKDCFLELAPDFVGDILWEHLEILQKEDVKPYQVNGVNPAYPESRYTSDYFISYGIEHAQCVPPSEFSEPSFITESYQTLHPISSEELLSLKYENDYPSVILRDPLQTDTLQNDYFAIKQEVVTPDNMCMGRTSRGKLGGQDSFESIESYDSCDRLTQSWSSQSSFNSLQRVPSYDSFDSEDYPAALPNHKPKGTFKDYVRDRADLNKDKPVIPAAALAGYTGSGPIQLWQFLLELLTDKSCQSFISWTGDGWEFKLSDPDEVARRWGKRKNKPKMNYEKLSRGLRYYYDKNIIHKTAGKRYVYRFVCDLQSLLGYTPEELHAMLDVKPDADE
Setting: k-mer, scored over probes, only values ≥0.25
`CCGGCCCC` has an E-score of 0.263.
`AAACCGGT` has an E-score of 0.381.
The E-score of `ATCGGTAA` is reported as 0.267.
The E-score of `ATATACAC` is reported as 0.257.
The E-score of `CCGGGGAA` is reported as 0.388.
The E-score of `CCGGGAGC` is reported as 0.256.
`CGGTTCGA` gave an E-score of 0.316.
`CGATGTAC` has an E-score of 0.259.
`ACCCGGTA` has an E-score of 0.381.
For `GTACCGAC`, the E-score was 0.355.
With `ACTTACAA` the E-score was 0.302.
`ACTCGAAC` has an E-score of 0.301.
With `CGACATAA` the E-score was 0.25.
`CGGTGTCA` gave an E-score of 0.301.
`CGCCGACG` has an E-score of 0.274.
For `TATTGCAA`, the E-score was 0.254.
For `ACATCCGT`, the E-score was 0.258.
With `CCCGGTCA` the E-score was 0.357.

Series 3 — technique: RNA Bind-n-Seq; form: RNA; medium: in vitro; tested at: 365 nM; baseline: no-protein control; direction: higher = stronger binding
Target: RNA binding protein fox-1 homolog 2, RRM domain, GST-SBP tag (RBFOX2, Homo sapiens, UniProt O43251-10, residues 100-194)
Setting: natural RNA segment, single round, ends assumed
Target sequence (chain): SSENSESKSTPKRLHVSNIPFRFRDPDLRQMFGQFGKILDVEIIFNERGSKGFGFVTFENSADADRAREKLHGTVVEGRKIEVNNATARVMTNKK
`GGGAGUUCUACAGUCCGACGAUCCUCCUGUAACCAUGCAAGCCUGUAGUUGAGUGAUGACCAUACAUAUGGACAGGGUCCCCUCCUGCUGUCCCUCCCUGCUCACACUUGCUCAGAUGCUGCAGUGCAGGGGCUGGAAUUCUCGGGUGCCAA`: “RBNS enrichment (R)” 1.11.
`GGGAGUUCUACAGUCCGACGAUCACCCCAAUCUCCAGUGUCUGUAGCUCUUGCCUGCAAGUCUUGCUUGUGGGGUGACGAGGGGUGUAGAAUACCCCGAACCCUCUUCCAGGACAAAGCCAGGAGUGGAGCUGUGGAAUUCUCGGGUGCCAA`: “RBNS enrichment (R)” 0.25.
Under “RBNS enrichment (R)”, `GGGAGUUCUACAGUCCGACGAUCGCCACUGCUUGUGUCAAGGGAGGCAGGCAGAAGAGAUGAGUCCAUUCCUCAGGGACAGGUACCUGUACCUACCCCGAUUCCAAACCUACCUGCCUGGUGAGAACUCCUGCUGGAAUUCUCGGGUGCCAA` is recorded as 0.432.
Under “RBNS enrichment (R)”, `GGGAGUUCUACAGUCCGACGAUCCCUGAAUAAAGAUGGGCUCUGAAAGGGGACUUCUGAGCAGGCCUAACUGUAGUCCUGGAAGUCUGAAGAAAGGGGGAGGGCAUCAUGGGUCAGCAGCACUGGGUGUCUAGUGGAAUUCUCGGGUGCCAA` is recorded as 0.967.
For `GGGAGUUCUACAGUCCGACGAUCCAGUGCCUCUGGGGGCUUCCUGAUGGAAAACUACACAAACUGAGUUUUUUAAAUGUUAACUCCACUUAGGCUUCUGUUUUCCUCAUAUCCUAUUUUUAAUUACUUCCAAUUGGAAUUCUCGGGUGCCAA`, “RBNS enrichment (R)” read 0.763.
For `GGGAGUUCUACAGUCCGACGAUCGAUGUGUUGGGCCUUUUCUAGGAAAGGGACCAAGCCCCUUCAAGUGGGGAGGCCCAGAGUUACCUGCCAUAUCCCACAUAGUGGAGGCGUUCCCGCAGCCGCCACCACUAUGGAAUUCUCGGGUGCCAA`, “RBNS enrichment (R)” read 0.421.
Under “RBNS enrichment (R)”, `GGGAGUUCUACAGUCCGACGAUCAUCCAAAUACGUGGGACUCAAAGACUCCUAGUCAGCUGUAGUUCUGGAGGCUCUGAAUGUCUAACUUUAGCAUCAAAGUGUCUGUCUCAGAUUCCCAGUAAACACCUCUGUGGAAUUCUCGGGUGCCAA` is recorded as 0.841.
`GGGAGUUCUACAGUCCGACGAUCUUCAUAACAGUGCCAUUGUCUUUAUAUGAACAUAGACUAGAGAAACCGUCCUCUUUUUCCAUCAUAAUUCUAAUCUAACAAUGGAAGAUUUGCCCAUUUACACUUUUGAGUGGAAUUCUCGGGUGCCAA`: “RBNS enrichment (R)” 0.433.

Series 4 — technique: RNA Bind-n-Seq; form: RNA; medium: in vitro; tested at: 200 nM; setting: whole 134-nt RNA, ends assumed; together with: 150 mM LiCl; baseline: input library; direction: higher = stronger binding; all molecules: 7-deaza-guanosine replaces G
Target: Ras GTPase-activating protein-binding protein 1, full length (G3BP1, Homo sapiens, UniProt Q13283)
Chain of UniProt Q13283 (whole entry, looked up): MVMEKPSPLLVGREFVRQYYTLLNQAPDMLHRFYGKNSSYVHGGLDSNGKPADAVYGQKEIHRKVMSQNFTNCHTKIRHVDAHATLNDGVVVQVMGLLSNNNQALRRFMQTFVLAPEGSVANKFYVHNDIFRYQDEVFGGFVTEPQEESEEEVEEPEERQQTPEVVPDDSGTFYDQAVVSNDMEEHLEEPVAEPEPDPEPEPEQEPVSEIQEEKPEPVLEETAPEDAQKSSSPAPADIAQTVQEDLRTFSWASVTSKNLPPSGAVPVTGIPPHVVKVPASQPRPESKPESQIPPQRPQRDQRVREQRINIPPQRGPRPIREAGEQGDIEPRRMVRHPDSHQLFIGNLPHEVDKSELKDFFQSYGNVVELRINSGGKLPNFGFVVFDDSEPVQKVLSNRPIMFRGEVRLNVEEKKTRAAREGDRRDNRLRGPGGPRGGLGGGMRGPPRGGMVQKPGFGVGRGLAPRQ
With `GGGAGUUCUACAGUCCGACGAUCCCUCAAGUCCUGUGCUACACAUCGUAUGUACCGAAUCGGCGGGGCGGGGCGGAAAGUAUUAUGUUACGCCGUUCGGAUCUGCACUUCCAGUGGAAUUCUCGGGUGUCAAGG` the log2 enrichment was -0.107.
`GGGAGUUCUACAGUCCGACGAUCUCCUGUGCUACACAUCGUAUGUACCGAAUCGGGGAAAAAAAGGGGAAAAAGGGGUGGGGAAAGUAUUAUGUUACGCCGUUCGGAUCUGCAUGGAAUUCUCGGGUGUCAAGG` has a log2 enrichment of -0.31.
`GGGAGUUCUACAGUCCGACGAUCUGGCCCUGGUGGCAUGCGGGGAGGAAGAGGUGGCCUCAUGGAUCGUGGUGGUCCCGGUGGAAUGUCCAGAGGUGGCCGUGGUGGAGACAGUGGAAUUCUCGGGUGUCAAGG` has a log2 enrichment of -0.0469.
With `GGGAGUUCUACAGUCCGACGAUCCAAGUCCUGUGCUACACAUCGUAUGUACCGAAUCGGUUUUGGUUUUGGGGUUUUGGAAAGUAUUAUGUUACGCCGUUCGGAUCUGCACUUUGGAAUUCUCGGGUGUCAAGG` the log2 enrichment was -1.29.
`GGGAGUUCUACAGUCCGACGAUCUUUAAACUGAAGCCGCGGCCGAAAACGCCAAGAGAUUGAUGCUGUAGCUGCCCUGAGAUAACCAGGACUGUGGAAUCGGGAAGAGCUCAUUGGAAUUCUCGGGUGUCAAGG` has a log2 enrichment of -2.19.
For `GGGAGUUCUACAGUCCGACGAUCCUGUGCUACACAUCGUAUGUACCGAAUCGGGGUUUUUGGGGUUUUUUUGGGGUUUUUGGGGAAAGUAUUAUGUUACGCCGUUCGGAUCUGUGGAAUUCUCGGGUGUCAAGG`, the log2 enrichment was 1.54.
`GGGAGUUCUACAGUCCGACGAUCAAGUCCUGUGCUACACAUCGUAUGUACCGAAUCAAACCCCCAAACCCAAAUUUAAAAAAGUAUUAUGUUACGCCGUUCGGAUCUGCACUUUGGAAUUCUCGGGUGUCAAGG` gave a log2 enrichment of 1.14.
With `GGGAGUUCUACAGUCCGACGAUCACCAUGCAGGUGGGCAUCUUUGGGAAGUGGGGCAUGGGGGGGAUAGGGAGGGGGGUAACACUUUGGGAACAGGUGGUCCCAGGUCGUUUCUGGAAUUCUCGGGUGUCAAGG` the log2 enrichment was 0.173.

Series 5 — technique: protein binding microarray; form: double-stranded DNA, one strand shown; medium: in vitro; tested at: not given; baseline: not given; direction: higher = stronger binding
Target: Histone acetyltransferase KAT6A, both winged helices, GST fusion (KAT6A, Homo sapiens, UniProt Q92794, residues 1-181)
Setting: 8-mer, flanks averaged, mean of 2 arrays, mostly near background
Residues (chain): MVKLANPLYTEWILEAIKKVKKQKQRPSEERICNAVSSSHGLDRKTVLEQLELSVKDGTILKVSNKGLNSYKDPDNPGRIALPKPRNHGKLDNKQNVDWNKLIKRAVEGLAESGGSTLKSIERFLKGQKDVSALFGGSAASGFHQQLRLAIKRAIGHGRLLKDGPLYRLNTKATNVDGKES
`TAATCCGA` gave an E-score of 0.0333.
For `ATCGGAAT`, the E-score was 0.0945.
For `AACATCTC`, the E-score was -0.00613.
For `AGCGAGCA`, the E-score was -0.0154.
`ACCCTAGT` has an E-score of -0.24.
For `GCTATTGA`, the E-score was 0.00639.
The E-score of `CAACCCGG` is reported as 0.151.
`ATCACAAC` gave an E-score of 0.0233.
For `CTTTGTCC`, the E-score was -0.0979.
`AAACTTAT` has an E-score of -0.041.
`AATATCAC` gave an E-score of -0.016.
For `CTCCTGCC`, the E-score was -0.144.
With `ATGTCATA` the E-score was 0.0514.
For `CTCGTTAA`, the E-score was -0.0689.
With `CGTCCTAG` the E-score was 0.0257.
For `GAAATCAC`, the E-score was 0.0505.
`CAGAGGAA` has an E-score of -0.121.
With `AAGGCCTC` the E-score was -0.171.
For `ATCCTATC`, the E-score was -0.0527.
With `AGTCAACT` the E-score was -0.17.
For `ACAGATCG`, the E-score was 0.0389.
For `CAAGACCG`, the E-score was 0.162.
`AGCCGTCG` has an E-score of 0.344.
`ACACAGCT` gave an E-score of -0.253.
`AGTATAAC` gave an E-score of -0.0669.

For quick reference, copied from above (series 1):
With `ACCTTAAT` the E-score was 0.203.
For `CTCTGAAA`, the E-score was 0.142.
`ATTTTCCC` gave an E-score of 0.0981.
With `ACCATTCG` the E-score was 0.0722.
For `TAGGCCGA`, the E-score was -0.247.
`CATATTAG` gave an E-score of 0.337.
For `CGAAGGAC`, the E-score was -0.176.
For `CCTGTGCG`, the E-score was -0.216.
The E-score of `ACTTTTCG` is reported as 0.109.
For `GCTAACAA`, the E-score was 0.102.
The E-score of `ACCCAGAG` is reported as -0.0859.
`AGTTGATC` gave an E-score of 0.021.
`GCCTTCGC` gave an E-score of -0.0485.
